Results of several laboratories.
Parts stem from different laboratories: compare values within a part only.
Chain of UniProt Q9UQ88 (whole entry, looked up): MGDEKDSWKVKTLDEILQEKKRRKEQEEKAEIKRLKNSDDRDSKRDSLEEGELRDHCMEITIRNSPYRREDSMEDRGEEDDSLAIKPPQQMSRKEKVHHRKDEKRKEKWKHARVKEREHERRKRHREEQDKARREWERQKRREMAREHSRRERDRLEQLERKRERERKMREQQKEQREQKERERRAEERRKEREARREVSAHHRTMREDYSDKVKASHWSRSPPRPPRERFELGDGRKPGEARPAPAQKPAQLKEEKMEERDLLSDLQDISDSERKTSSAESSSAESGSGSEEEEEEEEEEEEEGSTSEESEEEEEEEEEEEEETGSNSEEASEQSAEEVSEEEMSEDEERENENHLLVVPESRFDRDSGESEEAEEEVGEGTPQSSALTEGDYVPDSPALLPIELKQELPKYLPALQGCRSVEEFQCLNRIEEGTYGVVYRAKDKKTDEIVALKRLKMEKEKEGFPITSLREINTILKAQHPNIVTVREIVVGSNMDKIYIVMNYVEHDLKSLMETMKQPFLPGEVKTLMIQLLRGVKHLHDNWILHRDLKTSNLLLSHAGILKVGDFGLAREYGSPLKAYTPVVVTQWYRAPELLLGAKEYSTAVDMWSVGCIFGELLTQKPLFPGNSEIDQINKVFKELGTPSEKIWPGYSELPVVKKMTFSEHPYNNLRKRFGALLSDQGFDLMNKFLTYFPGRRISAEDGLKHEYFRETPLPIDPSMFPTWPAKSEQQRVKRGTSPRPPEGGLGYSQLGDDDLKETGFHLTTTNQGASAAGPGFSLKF
Chain of UniProt Q09013 (whole entry, looked up): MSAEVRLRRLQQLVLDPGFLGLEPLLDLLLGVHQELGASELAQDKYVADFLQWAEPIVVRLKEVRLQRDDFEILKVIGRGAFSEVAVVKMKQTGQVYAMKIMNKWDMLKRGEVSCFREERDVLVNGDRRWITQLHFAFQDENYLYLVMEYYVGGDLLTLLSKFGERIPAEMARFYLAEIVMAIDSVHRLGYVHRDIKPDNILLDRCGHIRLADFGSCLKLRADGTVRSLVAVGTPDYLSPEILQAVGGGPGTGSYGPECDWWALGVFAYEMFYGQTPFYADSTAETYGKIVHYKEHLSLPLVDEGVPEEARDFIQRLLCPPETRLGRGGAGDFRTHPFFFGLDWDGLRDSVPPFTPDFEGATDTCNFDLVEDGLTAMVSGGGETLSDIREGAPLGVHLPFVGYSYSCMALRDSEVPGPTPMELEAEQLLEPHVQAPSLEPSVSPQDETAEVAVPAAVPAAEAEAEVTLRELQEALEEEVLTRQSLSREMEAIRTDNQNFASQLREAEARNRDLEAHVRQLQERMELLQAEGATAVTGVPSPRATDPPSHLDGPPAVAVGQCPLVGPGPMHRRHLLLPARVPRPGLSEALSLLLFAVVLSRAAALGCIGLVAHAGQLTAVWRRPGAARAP
Chain of UniProt Q52WX2 (whole entry, looked up): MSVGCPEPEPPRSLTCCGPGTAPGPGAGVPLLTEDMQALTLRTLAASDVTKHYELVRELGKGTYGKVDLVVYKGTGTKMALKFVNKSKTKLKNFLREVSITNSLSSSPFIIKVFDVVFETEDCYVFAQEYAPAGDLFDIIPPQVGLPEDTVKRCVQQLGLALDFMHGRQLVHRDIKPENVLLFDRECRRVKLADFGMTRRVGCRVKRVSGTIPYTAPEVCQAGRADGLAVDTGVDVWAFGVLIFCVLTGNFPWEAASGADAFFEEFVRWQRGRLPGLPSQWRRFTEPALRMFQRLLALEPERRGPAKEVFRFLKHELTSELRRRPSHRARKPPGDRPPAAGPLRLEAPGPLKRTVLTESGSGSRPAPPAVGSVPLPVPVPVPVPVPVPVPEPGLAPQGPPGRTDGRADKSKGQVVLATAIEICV
Chain of UniProt Q8N752 (whole entry, looked up): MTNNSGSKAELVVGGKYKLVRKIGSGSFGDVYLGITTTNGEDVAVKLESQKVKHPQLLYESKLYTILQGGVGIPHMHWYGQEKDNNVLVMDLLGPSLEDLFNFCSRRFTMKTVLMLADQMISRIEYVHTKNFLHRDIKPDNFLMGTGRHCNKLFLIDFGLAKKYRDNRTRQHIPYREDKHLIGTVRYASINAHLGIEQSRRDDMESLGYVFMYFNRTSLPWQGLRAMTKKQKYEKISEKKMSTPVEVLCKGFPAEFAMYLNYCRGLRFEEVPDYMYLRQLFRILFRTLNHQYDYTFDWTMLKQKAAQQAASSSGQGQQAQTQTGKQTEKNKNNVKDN
Chain of UniProt P42336 (whole entry, unmodified, looked up): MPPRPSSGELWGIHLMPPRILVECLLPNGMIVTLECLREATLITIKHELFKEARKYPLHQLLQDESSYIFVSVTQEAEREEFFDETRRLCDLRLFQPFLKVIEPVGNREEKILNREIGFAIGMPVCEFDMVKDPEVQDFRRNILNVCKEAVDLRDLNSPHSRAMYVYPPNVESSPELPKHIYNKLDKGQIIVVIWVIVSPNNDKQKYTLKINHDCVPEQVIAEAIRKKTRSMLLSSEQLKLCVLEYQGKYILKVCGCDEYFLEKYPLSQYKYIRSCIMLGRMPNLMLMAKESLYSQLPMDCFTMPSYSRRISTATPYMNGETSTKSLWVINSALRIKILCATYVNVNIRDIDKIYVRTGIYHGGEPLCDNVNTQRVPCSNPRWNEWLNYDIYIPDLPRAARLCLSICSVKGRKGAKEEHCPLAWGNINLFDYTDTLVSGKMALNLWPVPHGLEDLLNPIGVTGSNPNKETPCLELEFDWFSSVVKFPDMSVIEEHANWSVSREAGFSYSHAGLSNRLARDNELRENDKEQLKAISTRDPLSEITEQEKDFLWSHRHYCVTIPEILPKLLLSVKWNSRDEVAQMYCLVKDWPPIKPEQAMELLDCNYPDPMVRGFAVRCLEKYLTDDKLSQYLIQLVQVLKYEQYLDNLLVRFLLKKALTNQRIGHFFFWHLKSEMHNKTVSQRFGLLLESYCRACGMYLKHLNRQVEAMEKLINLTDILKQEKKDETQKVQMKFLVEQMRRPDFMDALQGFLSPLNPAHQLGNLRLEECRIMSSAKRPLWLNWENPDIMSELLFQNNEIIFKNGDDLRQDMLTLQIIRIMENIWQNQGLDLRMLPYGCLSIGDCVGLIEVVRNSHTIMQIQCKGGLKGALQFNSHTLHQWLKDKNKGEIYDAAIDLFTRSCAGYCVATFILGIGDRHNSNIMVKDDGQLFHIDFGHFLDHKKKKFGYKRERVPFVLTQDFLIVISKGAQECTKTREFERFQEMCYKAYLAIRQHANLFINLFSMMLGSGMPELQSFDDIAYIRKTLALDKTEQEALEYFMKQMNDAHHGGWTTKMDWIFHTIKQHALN
Chain of UniProt P00519 (whole entry, unmodified, looked up): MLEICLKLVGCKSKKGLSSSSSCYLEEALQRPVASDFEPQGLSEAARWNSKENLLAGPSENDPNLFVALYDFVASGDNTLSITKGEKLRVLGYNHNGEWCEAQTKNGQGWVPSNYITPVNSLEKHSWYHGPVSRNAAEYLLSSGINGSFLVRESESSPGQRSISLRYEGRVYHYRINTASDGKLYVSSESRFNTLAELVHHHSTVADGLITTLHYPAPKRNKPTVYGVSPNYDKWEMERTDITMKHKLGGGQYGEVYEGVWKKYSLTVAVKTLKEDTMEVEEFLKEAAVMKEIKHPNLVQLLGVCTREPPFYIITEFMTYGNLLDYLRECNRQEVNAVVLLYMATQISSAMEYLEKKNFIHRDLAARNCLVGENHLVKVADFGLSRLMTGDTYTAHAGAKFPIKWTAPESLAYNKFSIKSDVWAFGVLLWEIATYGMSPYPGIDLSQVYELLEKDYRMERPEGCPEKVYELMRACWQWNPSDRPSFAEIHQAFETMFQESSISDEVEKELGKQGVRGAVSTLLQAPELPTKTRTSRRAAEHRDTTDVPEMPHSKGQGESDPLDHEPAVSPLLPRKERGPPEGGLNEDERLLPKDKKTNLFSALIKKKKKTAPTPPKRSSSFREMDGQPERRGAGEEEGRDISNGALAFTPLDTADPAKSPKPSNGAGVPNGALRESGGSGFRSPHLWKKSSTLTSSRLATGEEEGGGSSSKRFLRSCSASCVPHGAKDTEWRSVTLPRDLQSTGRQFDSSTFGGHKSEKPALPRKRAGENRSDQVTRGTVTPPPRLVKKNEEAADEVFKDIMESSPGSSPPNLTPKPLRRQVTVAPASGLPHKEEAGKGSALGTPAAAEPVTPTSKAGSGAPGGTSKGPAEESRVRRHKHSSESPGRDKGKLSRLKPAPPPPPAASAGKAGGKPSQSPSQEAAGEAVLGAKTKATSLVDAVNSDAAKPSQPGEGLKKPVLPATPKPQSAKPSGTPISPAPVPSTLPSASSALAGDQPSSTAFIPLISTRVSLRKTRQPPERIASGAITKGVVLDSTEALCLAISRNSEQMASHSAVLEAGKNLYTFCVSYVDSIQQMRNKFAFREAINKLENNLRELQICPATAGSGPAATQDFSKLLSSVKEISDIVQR
Chain of UniProt P19784 (whole entry, looked up): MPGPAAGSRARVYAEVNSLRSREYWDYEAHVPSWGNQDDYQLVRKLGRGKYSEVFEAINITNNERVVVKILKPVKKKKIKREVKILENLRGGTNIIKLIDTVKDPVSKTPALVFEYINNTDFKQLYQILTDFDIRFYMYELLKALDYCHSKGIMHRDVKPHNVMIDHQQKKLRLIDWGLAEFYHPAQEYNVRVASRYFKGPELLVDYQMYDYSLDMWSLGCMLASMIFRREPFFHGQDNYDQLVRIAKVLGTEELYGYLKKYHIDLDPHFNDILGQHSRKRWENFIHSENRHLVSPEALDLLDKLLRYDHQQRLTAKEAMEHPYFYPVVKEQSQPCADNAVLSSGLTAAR

Set 1 — read-out: enzyme activity; mode: inhibitor; concentration: 0.5 µM; reference: control
Target: Aurora kinase A (AURKA, Homo sapiens, UniProt O14965)
Construct (O14965 1-403): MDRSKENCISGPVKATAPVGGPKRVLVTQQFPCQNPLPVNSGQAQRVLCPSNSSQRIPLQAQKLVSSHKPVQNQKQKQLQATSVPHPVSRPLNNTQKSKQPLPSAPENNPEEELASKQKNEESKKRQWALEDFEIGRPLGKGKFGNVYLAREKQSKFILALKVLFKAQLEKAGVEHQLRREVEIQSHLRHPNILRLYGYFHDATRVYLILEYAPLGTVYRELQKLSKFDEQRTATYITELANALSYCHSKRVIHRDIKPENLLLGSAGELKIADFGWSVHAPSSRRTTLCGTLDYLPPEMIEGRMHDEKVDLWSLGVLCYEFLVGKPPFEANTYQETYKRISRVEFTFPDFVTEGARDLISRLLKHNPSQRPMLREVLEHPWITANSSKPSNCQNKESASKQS
SMILES	remaining activity [%]
O=C(c1cc2cc(O)ccc2[nH]1)c1cc2cc(O)ccc2[nH]1	71.6
NC(=O)c1cccc(-c2cc(Nc3ccc(OC(F)(F)F)cc3)ncn2)c1	107
N#CC(c1ccnc(NCCc2cccnc2)n1)c1nc2ccccc2s1 (stereo not shown)	83.8
COc1ccc2c(c1)c(C1=C(c3c[nH]c4ccccc34)C(=O)NC1=O)cn2CCCN(C)C	86.6
Cc1ccc(S(=O)(=O)/C=C/C#N)cc1	111
CCN(CC)CCCCN1c2ccccc2Oc2ccc(Cl)cc21	93.3
CC(C)N(CCC(=O)c1ccc2ccccc2c1)Cc1ccccc1	104
C[C@@H](N)[C@H]1CC[C@H](C(=O)Nc2ccncc2)CC1	94.6
CC(C)n1cnc2c(Nc3cccc(Cl)c3)nc(NCCO)nc21	108
O=c1cc(N2CCOCC2)oc2c(-c3ccccc3)cccc12	99
COc1cc2c(N3CCN(C(=O)Nc4ccc(OC(C)C)cc4)CC3)ncnc2cc1OCCCN1CCCCC1	108
COc1ccc(COc2ccc(Cc3cnc(N)nc3N)cc2OC)cc1	105
CCCCc1c(-c2ccc(OC)cc2)[nH]c2nccnc12	25.4
CCCCc1c(-c2ccc(O)cc2)[nH]c2nccnc12	24.5
O=C1NC(=O)c2c1c1c3ccccc3[nH]c1n1cncc21	34.8

Set 2 — technique: protein-binding microarray; form: double-stranded DNA, one strand shown; sample: in vitro; concentration: not given; direction: higher = stronger binding
Target: Protein C-ets-1 (ETS1, Homo sapiens, UniProt P14921, residues 1-441, Y397A, full length assumed)
Notes: k-mer, scored over probes, only values ≥0.25
Target sequence (chain): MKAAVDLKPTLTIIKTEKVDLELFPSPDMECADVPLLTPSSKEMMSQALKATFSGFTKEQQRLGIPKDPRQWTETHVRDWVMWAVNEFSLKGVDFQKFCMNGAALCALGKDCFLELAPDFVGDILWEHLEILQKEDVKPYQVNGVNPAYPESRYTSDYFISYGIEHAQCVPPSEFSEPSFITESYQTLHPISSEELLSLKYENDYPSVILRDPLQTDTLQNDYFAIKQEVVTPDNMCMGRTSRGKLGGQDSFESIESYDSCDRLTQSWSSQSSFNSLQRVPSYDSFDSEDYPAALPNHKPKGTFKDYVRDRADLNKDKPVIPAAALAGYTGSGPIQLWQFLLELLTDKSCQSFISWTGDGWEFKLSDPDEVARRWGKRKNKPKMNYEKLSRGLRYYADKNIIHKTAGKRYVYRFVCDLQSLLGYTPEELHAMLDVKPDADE
Sequence	E-score
CGTACAAA	0.273
GTGTCGCA	0.274
CGGCAAAC	0.393
ACATGCCA	0.261
GGATATAC	0.287
CTTCCGTA	0.326
ATACTTCC	0.289
CATGACAA	0.274

Set 3 — read-out: cell-free assay; technique: competition with immobilised ligand; concentration: 1 µM
Structure (SMILES): Cc1c(NC(=O)c2cc(C(N)=O)nc3cc(F)ccc23)c(C(F)(F)F)nn1Cc1ccc(C(C)(C)C)cc1
target	remaining binding [%]
Tyrosine-protein kinase ABL1, non-phosphorylated (ABL1, Homo sapiens, UniProt P00519, F317L)	100
DMPK (Homo sapiens, UniProt Q09013)	100
PIK3CA (Homo sapiens, UniProt P42336, Q546K)	32
MAP2K1 (Homo sapiens, UniProt Q02750)	91
MAP4K2 (Homo sapiens, UniProt Q12851)	100
Aurora kinase C (AURKC, Homo sapiens, UniProt Q9UQB9)	100
CDK11A (Homo sapiens, UniProt Q9UQ88)	94
EGFR (Homo sapiens, UniProt P00533, T790M)	100
EGFR (Homo sapiens, UniProt P00533, L858R)	100
CSNK2A2 (Homo sapiens, UniProt P19784)	100
NEK5 (Homo sapiens, UniProt Q6P3R8)	100
FLT3 (Homo sapiens, UniProt P36888, D835H)	79
CSNK1A1L (Homo sapiens, UniProt Q8N752)	93
SBK1 (Homo sapiens, UniProt Q52WX2)	100
Receptor-type tyrosine-protein kinase FLT3, autoinhibited (FLT3, Homo sapiens, UniProt P36888)	100

Set 4 — technique: RNA Bind-n-Seq; form: RNA; sample: in vitro; concentration: not given; notes: RNA with constant flanks, ends assumed; reference: input RNA pool; direction: higher = stronger binding
Target: RING finger protein unkempt homolog, zinc fingers 1-6, GST-SBP tag (UNK, Homo sapiens, UniProt Q9C0B0, residues 30-357)
Chain of UniProt Q9C0B0 (30-357, looked up): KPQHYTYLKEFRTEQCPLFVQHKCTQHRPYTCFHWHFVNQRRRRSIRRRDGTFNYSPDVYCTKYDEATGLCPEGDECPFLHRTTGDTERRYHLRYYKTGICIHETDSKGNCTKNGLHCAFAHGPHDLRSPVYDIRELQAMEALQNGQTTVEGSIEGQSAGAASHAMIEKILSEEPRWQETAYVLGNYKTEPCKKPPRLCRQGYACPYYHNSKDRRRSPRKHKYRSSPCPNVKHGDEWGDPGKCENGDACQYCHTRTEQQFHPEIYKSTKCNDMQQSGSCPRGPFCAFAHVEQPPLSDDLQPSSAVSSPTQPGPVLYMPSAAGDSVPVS
Shared flanks, not repeated: GGGAGUUCUACAGUCCGACGAUC … CAACAGAGGAUUGAGCAUCA
Sequence	bound/input enrichment
ACCAGAUUCUGCCUCAUCUGUAACUAUGUCAGUCGAAUAAUUGAACCCCUCACUUCCCGAUGUUCAAAAUUCCGCUUCAAGCCUCUGUCAGAUAAGAUUCAACAGGAGCGAUUACUGGAU	0.5 ratio
GGAAGACCUUUCAACUCCAUUCAGAAGACAACAUUUAGUAAGGAGGAUGGCGGAGGUUACCCGUAAUUUUCAGAUGUCUUGGGCUUUUUCUGCCAACAAAACCCAAAAUCAAAUUAGAGU	1.16 ratio
AUUAGAAAUGAUACCUUCAGUGACUCACCAGUUUGGCCAUGGAUCCCAUCAUUGUCUGAUGCCGCAGCUGUGUUUUUCAAUAUGGGGAUUGAUUUUAGAUCUUUGUUUCCCCUGGAGAAU	0.199 ratio
UUUUCUUUUGGAGGUGGAUUAUUUGAUGACAUGUUUGAAGAUAUGGAGAAAAUGUUUUCUUUCCGUGGUUUUGACUCUACCAAUCAGCAUACAGUACAGACUGAAAAUAGAUUUCAUGGA	0.339 ratio
UAUAUGAAGGUUAUAGAACGAGCGGCUUUUCCUCGGCGUCUCUGGGAACGGGUCCGGCUCCGUAAAAACUAUGAGAAAGCACUGGAGCAAAUAGAUGAAAAUCUGAUUUACUGGCCCCGU	0.156 ratio
CAGGGAGUGGGUGACAUAGAGCAUUCUAUGCCUUUGACAUUGUCAUAGGAUAAGCUGUGUCCGCACUUCCUCAGGAAAUGAGAUUGAUUUUUACAAUAGCCAAUAACAUUUGCACUUUAU	0.516 ratio
AUUAAUGAGGGCCUUAAAGCUGCUGACAACGACCCCACGGCGCCACCGUAUGACUCCCUCUCCGUCUUUGACUACGAGGGCAGCGGCUCCACGGCUGGCUCCUUGAGCUCCCUCAACUCC	0.146 ratio
AACACAUGGCAGUUCAACUUCAAGUUCAACCUGACAGAGGAUAUGUACUCCCAGGAUUCCACCGAUCUGCUUGCAAACUCAGGGCUGCAGUUCCAGAAACACGAGGAGGAAGGGAUCGAU	0.112 ratio
